Assay results collected from several papers.
Each numbered part is a random draw from the data of one study; scales do not carry over between parts. Several values in a cell are separate wells, animals, samples, runs or records.
UniProt O00506, sequence (whole entry, looked up): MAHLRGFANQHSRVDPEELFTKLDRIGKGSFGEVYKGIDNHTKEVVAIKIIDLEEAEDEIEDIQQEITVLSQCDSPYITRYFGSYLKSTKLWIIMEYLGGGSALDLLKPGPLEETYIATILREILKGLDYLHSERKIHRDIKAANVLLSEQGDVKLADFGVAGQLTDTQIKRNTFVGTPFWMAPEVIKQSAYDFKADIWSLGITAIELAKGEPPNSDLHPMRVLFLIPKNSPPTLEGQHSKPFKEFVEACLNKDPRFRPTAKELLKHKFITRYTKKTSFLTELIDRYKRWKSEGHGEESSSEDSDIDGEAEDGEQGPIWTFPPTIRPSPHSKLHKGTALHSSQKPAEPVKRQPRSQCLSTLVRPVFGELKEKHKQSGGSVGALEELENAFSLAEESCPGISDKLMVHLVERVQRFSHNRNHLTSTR
UniProt P06213, sequence (whole entry, looked up): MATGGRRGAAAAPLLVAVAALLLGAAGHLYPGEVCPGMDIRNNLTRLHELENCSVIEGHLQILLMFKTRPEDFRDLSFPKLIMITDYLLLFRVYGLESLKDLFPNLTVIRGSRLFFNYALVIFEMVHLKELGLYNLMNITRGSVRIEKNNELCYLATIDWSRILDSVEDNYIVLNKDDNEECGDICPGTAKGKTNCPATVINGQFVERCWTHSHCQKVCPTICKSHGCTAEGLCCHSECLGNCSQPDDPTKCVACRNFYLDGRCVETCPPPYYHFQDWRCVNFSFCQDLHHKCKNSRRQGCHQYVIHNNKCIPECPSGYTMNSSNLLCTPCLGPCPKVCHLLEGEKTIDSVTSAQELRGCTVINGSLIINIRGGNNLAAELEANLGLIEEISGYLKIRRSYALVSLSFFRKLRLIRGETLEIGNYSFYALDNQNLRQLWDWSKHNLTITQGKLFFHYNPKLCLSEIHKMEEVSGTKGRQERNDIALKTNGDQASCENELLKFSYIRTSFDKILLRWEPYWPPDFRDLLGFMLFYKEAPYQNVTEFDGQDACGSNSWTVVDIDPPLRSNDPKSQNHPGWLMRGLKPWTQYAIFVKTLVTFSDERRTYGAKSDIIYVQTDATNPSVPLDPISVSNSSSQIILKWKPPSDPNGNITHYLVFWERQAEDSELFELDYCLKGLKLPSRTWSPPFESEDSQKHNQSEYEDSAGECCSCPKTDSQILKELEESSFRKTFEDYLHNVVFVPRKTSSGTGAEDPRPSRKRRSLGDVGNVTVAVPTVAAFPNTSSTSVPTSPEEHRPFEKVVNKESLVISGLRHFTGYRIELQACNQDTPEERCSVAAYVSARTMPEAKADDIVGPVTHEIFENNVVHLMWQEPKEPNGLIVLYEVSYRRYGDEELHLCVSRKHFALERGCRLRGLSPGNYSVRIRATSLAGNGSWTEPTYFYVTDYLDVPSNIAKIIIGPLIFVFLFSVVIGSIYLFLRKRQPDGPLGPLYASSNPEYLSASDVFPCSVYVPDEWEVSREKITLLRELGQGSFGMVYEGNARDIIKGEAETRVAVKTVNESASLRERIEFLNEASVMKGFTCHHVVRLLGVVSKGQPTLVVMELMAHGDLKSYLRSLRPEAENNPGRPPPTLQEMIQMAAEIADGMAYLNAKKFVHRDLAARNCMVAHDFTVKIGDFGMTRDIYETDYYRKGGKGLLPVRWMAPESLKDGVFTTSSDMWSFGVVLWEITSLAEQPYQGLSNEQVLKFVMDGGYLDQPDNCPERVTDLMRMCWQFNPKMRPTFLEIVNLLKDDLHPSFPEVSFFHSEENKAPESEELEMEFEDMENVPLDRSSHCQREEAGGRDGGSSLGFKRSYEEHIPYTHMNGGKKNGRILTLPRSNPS
UniProt Q8NG66, sequence (whole entry, looked up): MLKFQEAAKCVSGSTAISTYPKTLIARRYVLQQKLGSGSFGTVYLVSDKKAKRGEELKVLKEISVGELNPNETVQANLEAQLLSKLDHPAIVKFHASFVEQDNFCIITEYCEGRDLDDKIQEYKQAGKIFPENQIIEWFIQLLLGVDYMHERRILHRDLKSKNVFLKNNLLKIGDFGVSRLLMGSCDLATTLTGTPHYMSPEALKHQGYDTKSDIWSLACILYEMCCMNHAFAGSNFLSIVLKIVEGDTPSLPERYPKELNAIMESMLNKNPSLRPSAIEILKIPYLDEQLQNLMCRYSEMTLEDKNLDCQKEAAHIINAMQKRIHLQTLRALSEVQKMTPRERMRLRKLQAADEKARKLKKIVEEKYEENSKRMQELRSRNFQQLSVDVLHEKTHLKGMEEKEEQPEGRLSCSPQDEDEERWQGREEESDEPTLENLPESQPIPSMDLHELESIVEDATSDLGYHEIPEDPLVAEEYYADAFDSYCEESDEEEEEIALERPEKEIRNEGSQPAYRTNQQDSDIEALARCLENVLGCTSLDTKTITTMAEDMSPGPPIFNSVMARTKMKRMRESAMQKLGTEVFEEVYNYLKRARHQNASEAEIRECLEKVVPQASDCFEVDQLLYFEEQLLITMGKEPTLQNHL
UniProt P09769, sequence (whole entry, looked up): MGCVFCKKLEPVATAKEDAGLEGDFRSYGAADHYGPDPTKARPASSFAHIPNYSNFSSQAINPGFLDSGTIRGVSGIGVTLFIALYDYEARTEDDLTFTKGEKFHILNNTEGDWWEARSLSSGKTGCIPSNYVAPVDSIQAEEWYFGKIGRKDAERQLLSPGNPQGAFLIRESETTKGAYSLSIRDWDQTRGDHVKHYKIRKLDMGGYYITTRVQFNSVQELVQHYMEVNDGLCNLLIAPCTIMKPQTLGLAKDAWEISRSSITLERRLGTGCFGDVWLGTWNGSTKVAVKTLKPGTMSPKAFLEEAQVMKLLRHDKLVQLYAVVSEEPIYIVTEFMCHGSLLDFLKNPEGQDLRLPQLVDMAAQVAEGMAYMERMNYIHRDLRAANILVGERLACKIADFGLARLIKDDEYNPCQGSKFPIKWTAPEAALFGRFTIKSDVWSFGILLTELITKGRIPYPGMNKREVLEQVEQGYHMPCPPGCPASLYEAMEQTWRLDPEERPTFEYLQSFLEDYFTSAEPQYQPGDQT
UniProt P51817, sequence (whole entry, looked up): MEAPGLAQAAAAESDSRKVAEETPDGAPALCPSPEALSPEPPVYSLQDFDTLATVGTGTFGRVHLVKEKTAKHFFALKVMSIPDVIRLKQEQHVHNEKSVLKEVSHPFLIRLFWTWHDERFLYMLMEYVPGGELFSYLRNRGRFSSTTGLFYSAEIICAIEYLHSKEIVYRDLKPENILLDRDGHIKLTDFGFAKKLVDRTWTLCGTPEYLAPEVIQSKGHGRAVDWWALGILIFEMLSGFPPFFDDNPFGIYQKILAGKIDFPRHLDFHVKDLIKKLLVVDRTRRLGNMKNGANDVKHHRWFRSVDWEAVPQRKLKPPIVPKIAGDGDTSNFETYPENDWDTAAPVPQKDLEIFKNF
UniProt Q16512, sequence (whole entry, looked up): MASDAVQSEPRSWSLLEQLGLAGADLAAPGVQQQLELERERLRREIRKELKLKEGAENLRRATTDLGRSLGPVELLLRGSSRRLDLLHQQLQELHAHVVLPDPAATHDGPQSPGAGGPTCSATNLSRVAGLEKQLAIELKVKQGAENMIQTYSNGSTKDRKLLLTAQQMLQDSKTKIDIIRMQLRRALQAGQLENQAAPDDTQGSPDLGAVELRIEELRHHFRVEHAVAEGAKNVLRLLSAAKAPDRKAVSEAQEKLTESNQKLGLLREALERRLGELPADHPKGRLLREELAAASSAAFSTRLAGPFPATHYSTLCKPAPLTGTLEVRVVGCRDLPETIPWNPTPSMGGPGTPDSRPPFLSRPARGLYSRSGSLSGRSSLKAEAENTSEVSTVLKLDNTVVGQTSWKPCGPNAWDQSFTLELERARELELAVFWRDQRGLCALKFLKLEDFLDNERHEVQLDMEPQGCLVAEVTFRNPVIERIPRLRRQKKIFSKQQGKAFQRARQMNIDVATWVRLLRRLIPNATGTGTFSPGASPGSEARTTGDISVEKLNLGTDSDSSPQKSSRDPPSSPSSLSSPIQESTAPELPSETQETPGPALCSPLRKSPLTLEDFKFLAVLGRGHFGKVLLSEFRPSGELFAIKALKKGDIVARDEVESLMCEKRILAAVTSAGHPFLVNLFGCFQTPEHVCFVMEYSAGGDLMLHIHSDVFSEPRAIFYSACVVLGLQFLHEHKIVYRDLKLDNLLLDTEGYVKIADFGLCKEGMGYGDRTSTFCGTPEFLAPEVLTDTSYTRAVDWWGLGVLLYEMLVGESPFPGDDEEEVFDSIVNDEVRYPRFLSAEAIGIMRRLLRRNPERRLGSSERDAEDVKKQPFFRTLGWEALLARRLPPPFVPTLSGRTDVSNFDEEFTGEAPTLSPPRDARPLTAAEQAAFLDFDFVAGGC
UniProt P06241, sequence (whole entry, looked up): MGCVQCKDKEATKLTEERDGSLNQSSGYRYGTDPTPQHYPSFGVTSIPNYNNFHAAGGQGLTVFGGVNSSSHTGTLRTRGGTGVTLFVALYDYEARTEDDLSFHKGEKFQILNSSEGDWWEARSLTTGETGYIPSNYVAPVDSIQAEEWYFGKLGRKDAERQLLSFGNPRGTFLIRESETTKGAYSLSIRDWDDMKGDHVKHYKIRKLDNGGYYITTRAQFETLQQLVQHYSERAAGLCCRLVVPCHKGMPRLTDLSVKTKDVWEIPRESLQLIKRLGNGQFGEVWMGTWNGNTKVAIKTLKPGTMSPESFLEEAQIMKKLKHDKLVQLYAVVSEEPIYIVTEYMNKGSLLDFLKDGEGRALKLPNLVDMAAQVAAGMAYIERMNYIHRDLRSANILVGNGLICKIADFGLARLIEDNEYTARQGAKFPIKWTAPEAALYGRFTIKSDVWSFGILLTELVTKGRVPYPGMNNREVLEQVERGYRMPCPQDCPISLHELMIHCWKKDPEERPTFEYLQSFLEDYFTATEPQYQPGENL

Series 1 — cell line: normal-adjacent epithelial organoid; observed: cell viability; technique: CellTiter-Glo; host: human; matrix: patient-derived organoid; concentration: 1 µM; baseline: DMSO; quantity: viability
CNC(=O)c1cc(C(=O)N[C@H]2[C@@H]3COC[C@@H]32)cc2c1O[C@@H](CF)[C@@H]2c1ccccc1: 111%
O=C1c2ccc(Nc3ccc(F)cc3F)cc2CCc2ccc(OC[C@H](O)CO)cc21: 118%
CNC(=O)c1ccccc1Nc1cc(Nc2ccc(N3CCOCC3)cc2OC)ncc1C(F)(F)F: 22.5%
CC(=O)N1CCC(c2ccc(C(=O)NC3=NCCN3)cc2C(F)(F)F)CC1: 93% and 94.4%
COc1cc(-c2cn(C3CCc4ccccc4N(CC(F)(F)F)C3=O)nn2)ccc1-n1ccc(C)n1 (stereo not drawn): 98.1% and 99.3%
Cc1noc([C@H]2C[C@@H](c3ccc(C(F)(F)F)cc3)CN(C(=O)N3CCS(=O)(=O)C3)C2)n1: 104% and 99.2%
CC1=C(C#N)C(c2ccc3c(c2)c(NC(=O)c2ccccc2C)nn3C)C(C#N)=C(C)N1: 80.9%
CN(C)[C@H]1CCN(c2cc(-c3ccccc3)nc3ccnn23)C1: 122%
CCC(=O)N[C@@H]1CC[C@H](C(=O)N(C)c2ccc(-c3nc4ccccc4o3)cc2)C1: 94.8% and 108%
O=C(NNS(=O)(=O)c1ccccc1)c1cc(-c2ccnnc2)ccc1F: 134%
Cn1nc(C(F)(F)F)cc1-c1cnc(N2CCc3cc(S(=O)(=O)Nc4c(F)cc(Cl)cc4F)cc(N4CCCC4=O)c32)nc1: 105%
Cn1cncc1[C@](O)(COc1ccc(C#N)cc1-c1ccc(OC(F)(F)F)cc1)c1ccc(C#N)cc1: 28.8% and 34%
N#CC1(c2ccccn2)CCN(Cc2cc(C(=O)O)c(=O)n3ccccc23)CC1: 109%
CN1CCN(Cc2ccc(Nc3ncc(Cl)c(Nc4ccccc4S(=O)(=O)N(C)C)n3)cc2)CC1: 1.8% and 1.6%
O=C(O)c1ccc(-c2c[nH]c3ncc(-c4ccccc4)cc23)cc1C1CCCC1: 109%

Series 2 — cell line: mouse MPNST tumor cells; technique: high-content nuclear imaging; item: cell number; concentration: 10 µM; time: 12 h; notes: mean of 2 replicates; baseline: plate mean; direction: higher = more cells; quantity: nuclei count
C[C@]12CC[C@@H]3c4ccc(OS(=O)(=O)O)cc4CC[C@H]3[C@@H]1CCC2=O: 0.304 z-score
Clc1cc(Cl)c(OCC#CI)cc1Cl: -4.93 z-score
Clc1ccc(C(Cn2ccnc2)OCc2csc3c(Cl)cccc23)c(Cl)c1 (stereo not drawn): 1.55 z-score
COc1c2occc2c(OC)c2c(=O)cc(C)oc12: 0.561 z-score
CC(C)Oc1ccc(-c2c[nH]cc2CN(C)CCN)cc1: 3.7 z-score and 2.39 z-score
COc1cc(Br)c(S(=O)(=O)Nc2ccc(Cl)c(OC3CCN(C)C3)c2)cc1OC (stereo not drawn): 0.763 z-score
CCCc1cc(C)n(C)c(=O)c1CN(C)C(=O)c1cc(-c2ccc(N3CCN(C(C)C)CC3)nc2)cc2c1cnn2C(C)C: 2.83 z-score
Cc1cc(N)c2ccccc2[n+]1CCCCCCCCCC[n+]1c(C)cc(N)c2ccccc21: -1.98 z-score
COc1cccc(CCc2ccccc2OCC(CN(C)C)OC(=O)CCC(=O)O)c1 (stereo not drawn): 2.25 z-score

Series 3 — Compound: COc1ccc(Cl)cc1NC(=O)Nc1cc(C)nc2ccccc12; observed: enzyme activity; action: inhibitor; concentration: 0.5 µM; baseline: control; quantity: remaining activity
RAC-alpha serine/threonine-protein kinase (AKT1, Homo sapiens, UniProt P31749): 95.8%
cAMP-dependent protein kinase catalytic subunit PRKX (PRKX, Homo sapiens, UniProt P51817): 98%
MAP/microtubule affinity-regulating kinase 3 (MARK3, Homo sapiens, UniProt P27448): 126%
Insulin receptor (INSR, Homo sapiens, UniProt P06213): 93.2%
LIM domain kinase 1 (LIMK1, Homo sapiens, UniProt P53667): 87.1%
Serine/threonine-protein kinase Nek11 (NEK11, Homo sapiens, UniProt Q8NG66): 94.6%
Serine/threonine-protein kinase MRCK alpha (CDC42BPA, Homo sapiens, UniProt Q5VT25): 98.8%
Tyrosine-protein kinase Fgr (FGR, Homo sapiens, UniProt P09769): 92%
Cyclin-dependent kinase 3, with cyclin E (CDK3, Homo sapiens, UniProt Q00526): 93.6%
Serine/threonine-protein kinase N1 (PKN1, Homo sapiens, UniProt Q16512): 104%
Vascular endothelial growth factor receptor 3 (FLT4, Homo sapiens, UniProt P35916): 100%
Serine/threonine-protein kinase TAO3 (TAOK3, Homo sapiens, UniProt Q9H2K8): 105%
PAS domain-containing serine/threonine-protein kinase (PASK, Homo sapiens, UniProt Q96RG2): 97.6%
Tyrosine-protein kinase ITK/TSK (ITK, Homo sapiens, UniProt Q08881): 96%
Serine/threonine-protein kinase 25 (STK25, Homo sapiens, UniProt O00506): 101%
Megakaryocyte-associated tyrosine-protein kinase (MATK, Homo sapiens, UniProt P42679): 98.2%
ALK tyrosine kinase receptor (ALK, Homo sapiens, UniProt Q9UM73): 99.2%
Homeodomain-interacting protein kinase 1 (HIPK1, Homo sapiens, UniProt Q86Z02): 97.2%
Serine/threonine-protein kinase NLK (NLK, Homo sapiens, UniProt Q9UBE8): 94.5%
Tyrosine-protein kinase Fyn (FYN, Homo sapiens, UniProt P06241): 100%
Proto-oncogene tyrosine-protein kinase Src (SRC, Homo sapiens, UniProt P12931): 99%
Tyrosine-protein kinase Fer (FER, Homo sapiens, UniProt P16591): 92.4%

Series 4 — cell line: A-375; concentration: 100 µM; time: 18 h; quantity: viability
N[C@H](C(=O)O)[C@H](O)c1ccc(O)c(O)c1: 93.9%
COc1cc(S(=O)(=O)O)ccc1O: 106% and 89.7%
C[C@H](Cc1cc2c(c(C(N)=O)c1)N(CCCO)CC2)NCCOc1ccccc1OCC(F)(F)F: 94.4%
COc1cccc2c1C(=O)c1c(O)c3c(c(O)c1C2=O)C[C@@](O)(C(=O)CO)C[C@@H]3O[C@H]1C[C@H](N)[C@@H](O)[C@H](C)O1: 76.2%
Nc1ncnc2c1ncn2[C@@H]1O[C@H](CO)[C@@H](O)[C@H]1O: 98%
NCCc1ccc(O)c(O)c1: 123%
CO/N=C(\C(=O)N[C@@H]1C(=O)N2C(C(=O)O)=C(COC(N)=O)CS[C@H]12)c1ccco1: 102%
C[C@@H](O[C@H]1OCCN(Cc2nc(O)n(P(=O)(O)O)n2)[C@H]1c1ccc(F)cc1)c1cc(C(F)(F)F)cc(C(F)(F)F)c1: 7.83%

Repeated from above (series 3):
Serine/threonine-protein kinase Nek11 (NEK11, Homo sapiens, UniProt Q8NG66): 94.6%
cAMP-dependent protein kinase catalytic subunit PRKX (PRKX, Homo sapiens, UniProt P51817): 98%
Tyrosine-protein kinase Fgr (FGR, Homo sapiens, UniProt P09769): 92%
PAS domain-containing serine/threonine-protein kinase (PASK, Homo sapiens, UniProt Q96RG2): 97.6%
Tyrosine-protein kinase Fer (FER, Homo sapiens, UniProt P16591): 92.4%
Serine/threonine-protein kinase N1 (PKN1, Homo sapiens, UniProt Q16512): 104%
Cyclin-dependent kinase 3, with cyclin E (CDK3, Homo sapiens, UniProt Q00526): 93.6%
